Published values collected from several papers.
Parts stem from different laboratories: compare values within a part only. Substitutions count along the parent as printed.

Series 1 — method: RNA Bind-n-Seq; molecule type: RNA; medium: in vitro; concentration: 365 nM; reference: no-protein control; reading: higher = stronger binding; quantity: RBNS enrichment (R)
Target: RNA binding protein fox-1 homolog 2, RRM domain, GST-SBP tag (RBFOX2, Homo sapiens, UniProt O43251-10, residues 100-194)
Setting: natural RNA segment, single round, ends assumed
All sequences stand within: GGGAGUUCUACAGUCCGACGAUC … UGGAAUUCUCGGGUGCCAA
Construct (chain): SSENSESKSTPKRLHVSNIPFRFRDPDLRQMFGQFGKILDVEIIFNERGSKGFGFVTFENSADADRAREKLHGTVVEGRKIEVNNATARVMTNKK
Oligonucleotide = UUUCCUGCAGAGUUCUUUGUAUCAACAGCCUAUGGUUGAGAUGUUUUCUCAUUUCCUGUAGAGAGAGAAUACCACUAACAAACAAACAAAAACUUUAGUGCCAAAAUAGU; result = 0.504
Oligonucleotide = CUUCAGGAGAUUAACAACUGGGUGCAGGCCCAGAUGAAAGGGAAGAUUGCCCGGUCCACGAGGGAAAUGCCCAGUGCCCUCAGCAUCCUUCUCCUUGGCGUGGCUUACUU; result = 0.528
Oligonucleotide = UUUCUAGUAAGGGGCUGUAGUUAGAUGACUCUUGUAUAGAUUUCAGUUACUUAUGCUGAAGAUCCCUGUGCUAGGUUAGCCUUUAGAAGUUAGAGUUGUGGAAAGCAGUA; result = 0.876
Oligonucleotide = UCUAUUUGCCAAUGAUAGAUCACUAAUUACAAAGCUAGUAGUUCUCCUUUGGGUAAGAGUCUGUUUGCCAUACAUCACUCUUCCACUGUGGCUUGGUAUUGUGCAGAUUA; result = 2.74
Oligonucleotide = CUUGAAUAAGCUGCUGCUUACCCCACUGAGCCUCAGUUUUUCCUAUGUAAGAGUGAUAUAAAACCUACCUCUGAGGUCAUUUAAUAAUAAGCACAGACAUGUGGAAAGUG; result = 0.403
Oligonucleotide = UCAUCCAGCUCGUCCAAAGGCUUCAGGGAUGGAAACAAACCAGCUCGUCUCAGAGGCCAGCAAGCUGGGGCCUGUCCGCCACGGUGCCCUGUGCACCUUUGGGCUGCCCU; result = 0.225
Oligonucleotide = UCCAGAGUACACAGUGAAACACUUGUCUUUUUUAAAAAACAAAAGCUAGCUACGAAUUUUUAAAGAAAUACUGUUUAAGUUAGAGAUGGUUUAAAGAAAAAUAGUUCACC; result = 0.7
Oligonucleotide = UAGCCAACAUUCCUGCCCUAACCCUGCCCAUCACCAGCUGGCUGGGCUGGUAUUUAUCUGCAAGGUUGAAGUCACUGGGAUUCUUUUCCUUUCACCUAGAUAGUCCUUGG; result = 0.383
Oligonucleotide = CGAUUCCUUCUGUAUGUCAUUCUUGUUAACAAGACCAUAACCUCCCCGACCUGACACCUCAUAUGAUCUCUGCUUCUAAAAAUCAGGUGUGAUCCUACUUGAAAACAACC; result = 0.325
Oligonucleotide = GCCUGGGUGCCUGGAUGCAUGGAUGCCUGGGUGCCCGGAUGCAUGGAUGCAUGGGUGCCCGGAUGCAUGGGUGCAUGCUGGUCUCAAGUCACAAGCUGCCUCUAUUUCAG; result = 2.98
Oligonucleotide = AUGGAGCCCUUCCCCCAGAAGGCUACUUCCUUGUUUUAGAGGAAGGUACUGCCCAUUGGGAGAUGGGGACAUUGGGACCUCAGCAAUGAAGAACCCUUGUGAAGUAACCA; result = 0.205
Oligonucleotide = GAACCUGCUUCCUCUCCCUUCCAAAGACAGUGACAGCUGACUGAGGGCAAAGAGCAGGCACCACUCAGAACGUGGUGAGUACAGCUCAGCUCAGCACUCAGUCAGUGGUA; result = 0.636

Series 2 — target: CCNB1, cyclin fold, Cln2 fusion (human); method: yeast growth competition, sequencing; medium: yeast; setting: strong parent motif; reference: not given; reading: higher = stronger binding; quantity: normalised enrichment score
Starting sequence: MASTL docking peptide (human); PMIAKNLMCELDE; partner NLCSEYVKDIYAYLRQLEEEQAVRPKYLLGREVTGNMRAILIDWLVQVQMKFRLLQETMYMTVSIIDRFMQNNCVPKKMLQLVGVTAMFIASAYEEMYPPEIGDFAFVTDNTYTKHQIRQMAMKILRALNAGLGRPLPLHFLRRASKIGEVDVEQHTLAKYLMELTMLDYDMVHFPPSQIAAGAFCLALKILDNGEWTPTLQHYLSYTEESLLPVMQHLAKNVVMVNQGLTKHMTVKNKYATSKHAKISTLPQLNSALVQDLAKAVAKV
Variant = M8A; result = 0.25
Variant = N6M; result = 0.36
Variant = A4R; result = 2.67
Variant = C9Q; result = 2.33
Variant = L11W; result = 1.05
Variant = C9M; result = 2.11
Variant = D12Y; result = 0.355
Variant = K5Y; result = 0.549
Variant = M8P; result = 0.103
Variant = L7S; result = 0.137
Variant = N6V; result = 0.364
Variant = L11C; result = -0.205
Variant = I3L; result = 0.981
Variant = N6P; result = 0.0157
Variant = K5A; result = 0.146
Variant = E10I; result = 1.28
Variant = I3G; result = 0.47
Variant = C9F; result = 2.82
Variant = I3K; result = 0.18
Variant = D12I; result = 0.713
Variant = A4M; result = 1.3
Variant = K5C; result = 0.56
Variant = L11S; result = 0.14
Variant = I3R; result = 0.204
Variant = M2I; result = 2.29

Series 3 — method: protein-binding microarray; molecule type: double-stranded DNA, one strand shown; medium: in vitro; concentration: 2200 nM top; setting: 60-bp whole probe; added: salmon DNA 0.4 mg/ml; reference: random background probes; reading: higher = stronger binding; quantity: fitted relative affinity; all sequences stand within: GCCTAGCAC … GTCTTGATTCGCTTGACGCTGCTG
Target: Interferon regulatory factor 7, full length, phosphomimetic (IRF7, Homo sapiens, UniProt Q92985, residues 1-503, S471D/S472D/S475D/S476D/S477D/S483D/S484D/S487D)
Chain of UniProt Q92985 (whole entry, unmodified, looked up): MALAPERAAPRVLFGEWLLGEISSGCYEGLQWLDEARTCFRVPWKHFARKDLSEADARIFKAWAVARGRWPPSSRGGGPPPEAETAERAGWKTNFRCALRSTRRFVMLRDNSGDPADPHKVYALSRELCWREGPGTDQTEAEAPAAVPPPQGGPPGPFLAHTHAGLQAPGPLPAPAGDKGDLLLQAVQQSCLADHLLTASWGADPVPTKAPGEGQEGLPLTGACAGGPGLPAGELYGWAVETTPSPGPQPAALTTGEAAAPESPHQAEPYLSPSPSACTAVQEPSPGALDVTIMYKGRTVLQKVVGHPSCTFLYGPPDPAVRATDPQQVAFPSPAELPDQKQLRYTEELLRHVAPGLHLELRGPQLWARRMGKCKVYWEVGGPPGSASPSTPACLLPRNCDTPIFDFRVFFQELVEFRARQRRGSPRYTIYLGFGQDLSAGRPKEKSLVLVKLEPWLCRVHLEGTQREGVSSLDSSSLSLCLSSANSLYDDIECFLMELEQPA
Oligonucleotide = TTAGGTATCGATCTCGGTTAGTGCTAG; result = 0.822 z-score
Oligonucleotide = TTAGGTTTCAGTTCCGATTAGTGCTAG; result = 3.81 z-score
Oligonucleotide = GACGGTTCCCTTTTCCTGAGGTGCTAG; result = 2.35 z-score
Oligonucleotide = TCATGGTTCTTGCTTGGTACTGTGCTA; result = 0.998 z-score
Oligonucleotide = TCACAGCTCCCTTTCTCACTGTGCTAG; result = 1.39 z-score
Oligonucleotide = TCAATGTTCCCTATTTAACTGTGCTAG; result = 1.68 z-score
Oligonucleotide = GACGCTATCGGGACTGGGGACGTGCTA; result = -0.149 z-score
Oligonucleotide = TTATGTCTCGGTCTCGGTTAGTGCTAG; result = 1.48 z-score
Oligonucleotide = AACTTTCTCTGCTCTTTTCAAGTGCTA; result = 1.7 z-score
Oligonucleotide = GACGATTTCAGTTCCGATACGTGCTAG; result = 2.39 z-score
Oligonucleotide = TTAAATCTCAGTCTCGATTAGTGCTAG; result = 0.249 z-score
Oligonucleotide = TGAGATTTCAGTTTCGATTAGTGCTAG; result = 7.48 z-score
Oligonucleotide = GACGGTATCGGTATCGTGACGTGCTAG; result = 0.567 z-score
Oligonucleotide = CTTAGAATAATTTTTTAGCTTGTGCTA; result = -0.873 z-score
Oligonucleotide = GACGATATCGGGTATCGCGACGTGCTA; result = 0.139 z-score
Oligonucleotide = TTAGGTCTCCTTTTCATTTAGTGCTAG; result = 1.75 z-score
Oligonucleotide = TTAGGTTTCGGGTCTGGGTTAGTGCTA; result = 6.87 z-score
Oligonucleotide = TGGAAACTCGTATGTGACCTTGTGCTA; result = 0.196 z-score
Oligonucleotide = TTAGAACTGGTGACTGGATTAGTGCTA; result = -0.389 z-score
Oligonucleotide = TTAGGTTTTGACACTGGGTTAGTGCTA; result = 0.102 z-score
Oligonucleotide = TTAGAACTGGGGACTGGATAAGTGCTA; result = -0.61 z-score
Oligonucleotide = TTAGGTATCGGTATCGGCTAGTGCTAG; result = 0.455 z-score
Oligonucleotide = TTAGGTATCCTTCTCATTTAGTGCTAG; result = 0.801 z-score
Oligonucleotide = GACGGGTTCCTTATCCTGACGTGCTAG; result = 0.761 z-score
Oligonucleotide = TTCCAGCTGGTGACTAGCGAGTGCTAG; result = 0.139 z-score

Series 4 — method: aptamer microarray, sandwich; molecule type: DNA with 2'F-ANA; medium: in vitro; concentration: 200 nM; added: Cy3 exosite-II aptamer, 400 nM; reading: higher = stronger binding; quantity: mean fluorescence intensity; oligonucleotide: GGTTGGTGTGGTTGG
Target: Prothrombin, mature alpha-thrombin (F2, Homo sapiens, UniProt P00734)
Setting: whole 15-mer aptamer, many near background
Modification = 2'F-ANA at 1 3 4 6 7 8 9 12 14 15; result = 90.6 a.u.
Modification = 2'F-ANA at 1 5 11 13 15; result = 47.7 a.u.
Modification = 2'F-ANA at 3 5 9 13; result = 177 a.u.
Modification = 2'F-ANA at 1 3 4 7 8 9 10 14 15; result = 54.9 a.u.
Modification = 2'F-ANA at 1 2 4 6 7 8 10 11 12 13 15; result = 57.1 a.u.
Modification = 2'F-ANA at 2 3 4 6 8 10 11 12 15; result = 289 a.u.
Modification = 2'F-ANA at 4 7 8 11 13 14; result = 102 a.u.
Modification = 2'F-ANA at 2 6 7 8 10 12 13; result = 159 a.u.
Modification = 2'F-ANA at 1 2 4 6 9 13 14 15; result = 47.2 a.u.
Modification = 2'F-ANA at 1 2 3 4 6 9 10 11 12 14 15; result = 79 a.u.
Modification = 2'F-ANA at 1 4 6 8 9 10 11 12; result = 93.5 a.u.
Modification = 2'F-ANA at 1 2 4 5 8 10 11 12 15; result = 48.9 a.u.
Modification = 2'F-ANA at 1 2 4 5 6 7 8 10 11 12 13 14 15; result = 54.2 a.u.
Modification = 2'F-ANA at 4 5 7 9 10 11 13 14; result = 43.5 a.u.
Modification = 2'F-ANA at 3 6 8 12 13 14; result = 562 a.u.
Modification = 2'F-ANA at 1 3 4 5 8 11 12 13 14 15; result = 58.9 a.u.
Modification = 2'F-ANA at 2 4 6 8 9 10 12 13 15; result = 78.7 a.u.
Modification = 2'F-ANA at 3 4 7 8 11 13; result = 672 a.u.
Modification = 2'F-ANA at 1 2 3 4 10 11 12 13 14 15; result = 54.7 a.u.
Modification = 2'F-ANA at 1 2 4 9 10 11 13 14; result = 54 a.u.
Modification = 2'F-ANA at 5 6 11 12 13 14; result = 105 a.u.
Modification = 2'F-ANA at 2 9 11 13 15; result = 304 a.u.
Modification = 2'F-ANA at 1 2 3 4 5 6 9 10 12 15; result = 50.9 a.u.
Modification = 2'F-ANA at 2 4 5 6 8 10 12 13; result = 56.6 a.u.
Modification = 2'F-ANA at 2 3 5 7 10 15; result = 51 a.u.

A few entries again (series 4):
Modification = 2'F-ANA at 4 5 7 9 10 11 13 14; result = 43.5 a.u.
Modification = 2'F-ANA at 1 2 4 5 8 10 11 12 15; result = 48.9 a.u.
Modification = 2'F-ANA at 1 2 4 6 9 13 14 15; result = 47.2 a.u.
Modification = 2'F-ANA at 1 3 4 6 7 8 9 12 14 15; result = 90.6 a.u.
Modification = 2'F-ANA at 2 3 5 7 10 15; result = 51 a.u.
Modification = 2'F-ANA at 1 2 3 4 10 11 12 13 14 15; result = 54.7 a.u.
